Published values from different studies.
Each line is one published result; not all experiments were run side by side. ± gives the spread as reported.
GBA1: Lysosomal acid glucosylceramidase (GBA1, Homo sapiens, UniProt P04062)
EPHX2: Bifunctional epoxide hydrolase 2 (EPHX2, Homo sapiens, UniProt P34913)
PGR: Progesterone receptor (PGR, Homo sapiens, UniProt P06401)
CES2: Cocaine esterase (CES2, Homo sapiens, UniProt O00748)

SMILES | tested on | test | system | setting | scale | endpoint | value
CCCCCCCCNP(=O)(OCCCCCCCC)O[C@@H]1O[C@H](CO)[C@@H](O)[C@H](O)[C@H]1F (mixture of isomers) | GBA1 | enzyme activity, irreversible inhibitor | – | pH 5.5, 37 °C, added: 2,4-dinitrophenyl beta-D-glucopyranoside | – | kinact/Ki | 39.5 min⁻¹ mM⁻¹
N=C(N)NCCC[C@@H]1NC(=O)[C@H](Cc2c[nH]c3ccccc23)NC(=O)[C@@H](CC2CCCCC2)NC(=O)[C@@H]2CCCN2C(=O)[C@@H](NC(=O)CCc2ccccc2)CCCNC1=O | – | – | C57BL/6J mouse, plasma plasma | intravenous, 1 mg/kg single dose | – | MRT(0-last) | 19.7 min
CCCC(=O)NC1CCN(C(=O)c2ccc(NC(=O)NC34CC5CC(C)(CC(C)(C5)C3)C4)cc2)CC1 | EPHX2 | – | – | – | – | lipophilic ligand efficiency | 6.04
CCCCCCCCCSc1nc2c([nH]1)c(=S)n(C)c(=O)n2C | PGR | reporter gene, antagonist, MMTV-luciferase | T47D/A1-2 | 10 µM, 24 h, added: 5 nM progesterone | reference: maximal activity | remaining activity | 42%
CCCC(=O)Nc1ccc(OC)nc1C | CES2 | substrate | – | 50 µM, pH 8, 37 °C, enzyme purity 4% | – | specific activity | 14 pmol/min/µg
N[C@@H](Cc1ccc(O)c(Cl)c1)C(=O)O | Iodotyrosine deiodinase 1 (Homo sapiens, UniProt Q6PHW0) | substrate, stopped-flow | – | 200 µM | – | k2 | 0.134 s⁻¹
CN(C)c1ccc(/N=N/c2ccc(C(=O)NCc3cn(CCOCCOC(CC(=O)NCCNc4cccc5c(S(=O)(=O)O)cccc45)O[C@@H]4O[C@H](CO)[C@@H](O)[C@H](O)[C@H]4O)nn3)cc2)cc1 (some centres unmarked) | GBA1 | enzyme activity, substrate | – | recombinant human enzyme | – | kcat/Km | 130 ± 9 M⁻¹ s⁻¹
Nc1ncnc2c1ncn2C1OC(COP(=O)(O)OP(=O)(O)OCC2OC(O)C(O)C2O)C(O)C1O (centres unmarked) | TRPM2 (Nematostella vectensis, UniProt A7T1N0) | activator, inside-out patch clamp | Xenopus oocytes, wild-type TRPM2 | added: 125 µM Ca2+ and 2.5 µM PIP2 | – | Hill coefficient | 1.7 ± 0.2
N#CCCN1CCN(C(=S)c2ccc(-c3ccccc3Cl)o2)CC1 | NPR2 (Homo sapiens, UniProt P20594) | HTRF, measured: cGMP | HEK293 overexpressing GC-B | added: subthreshold CNP | reference: saturating CNP | Emax | 75%
C=C1C(=O)O[C@@H]2[C@H]3C(CO)=CC(=O)C3=C(C)C[C@H](OC(=O)Cc3ccc(O)cc3)[C@@H]12 | MAL12 (Saccharomyces cerevisiae S288c, UniProt P53341) | 3D fluorescence | – | 65.22 µM | – | fluorescence decrease | 72.1%
CN1C(=O)[C@@H](Cc2ccc(O)cc2)NC(=O)CNC(=O)[C@H](Cc2ccc3ccccc3c2)NC(=O)[C@H](CCCNC(=N)N)NC(=O)[C@H]1CCCNC(=O)c1ccc(CNC(=O)CN2CCN(CC(=O)O)CCN(CC(=O)O)CCN(CC(=O)O)CC2)cc1 [gallium-68 labelled] | – | – | SCID mice, lymphoma xenograft, lungs | intravenous, 1 h | – | tissue uptake | 4.4 ± 0.6 %ID/g
CC(C)(C)CCN1C[C@@H]2[C@@H](CNC(=O)c3cc(Cl)cc(Cl)c3)[C@@H]2C1.Cl | CACNA1C (Oryctolagus cuniculus, UniProt P15381) | whole-cell patch clamp | HEK-293T, transfected | 5 µM | – | Gmax | 0.21 ± 0.067 nS/pF
CCCCCCCCCC(=O)Nc1ccc(OC)nc1C | CES2 | substrate | – | 50 µM, pH 8, 37 °C, enzyme purity 4% | – | specific activity | 30 pmol/min/µg
CCCC[C@H](C)/C=C(C)/C=C/C(=O)O | TRPA1 (Homo sapiens, UniProt O75762) | ion current, inhibitor, cell-attached single-channel patch clamp | HEK-293T | 5 µM, -60 mV, added: 100 µM AITC | reference: basal | open probability | 17 fold
CCCC(=O)N1CCN(C(=O)c2ccc(NC(=O)NC34CC5CC(C)(CC(C)(C5)C3)C4)cc2)CC1 | EPHX2 | – | – | – | – | lipophilic ligand efficiency | 5.85
C=C(O[C@H]1C=CC=C(C(=O)O)[C@@H]1O)C(=O)O | Enterobactin synthase component B (entB, Escherichia coli, UniProt P0ADI4) | isochorismatase activity | – | 0.1 µM EntB, LDH-coupled, added: 0 µM 2,3-dihydroxybenzoate | – | Vmax | 4.91 ± 0.22 µM/min
CC(C)CC(NC(=O)C(NC(=O)NC(C(=O)O)C(C)C)C1CCNC(=N)N1)C(=O)NCCCNC(C(=O)O)C(OC1OC(CN)C(O)C1O)C1OC(n2ccc(=O)[nH]c2=O)C(O)C1O (centres unmarked) | mraY (Aquifex aeolicus, UniProt O66465, F262A) | ITC | – | F262A mutant | – | ΔS | 14.7 ± 2.5 cal/mol/K
C=CC(=O)N1C[C@H](C)N(c2nc(OC[C@@]34CCCN3C[C@H](F)C4)nc3c(F)c(-c4ccc(F)c5sc(N)c(C#N)c45)c(C(F)(F)F)cc23)C[C@H]1C | GTPase KRas (KRAS, Homo sapiens, UniProt P01116, G12C) | Western blot | MIA PaCa-2 and SW1463 | concentration not given | – | duration of MAPK pathway suppression | ≥ 24 h

SMILES | tested on | test | system | setting | scale | endpoint | value
CCCCOc1ccc(C(=O)OCC[N+]2(C)CC=CCC2)cc1 (centres unmarked) | CHRM2 (Homo sapiens, UniProt P08172) | recovery of [3H]NMS binding after washing | membranes | 100 µM | – | dissociation half-time | 0.2 ± 0.1 h
CC(C)[C@H](NC(=O)[C@H](CCCCN)NC(=O)[C@H](C)NC(=O)[C@H](CCCCN)NC(=O)CNC(=O)[C@H](CCCNC(=N)N)NC(=O)[C@@H](NC(=O)[C@H](CCCCN)NC(=O)[C@@H](N)CO)[C@@H](C)O)C(=O)N[C@H](C(=O)NCC(=O)N[C@@H](CCCNC(=N)N)C(=O)N[C@@H](Cc1c[nH]c2ccccc12)C(=O)N[C@@H](CCCCN)C(=O)O)[C@@H](C)O | TPM1/ACTA1, with F-actin (Oryctolagus cuniculus, UniProt P58772+P68135) | binding, LSPR | F-actin-tropomyosin filament | pH 7.0 | – | koff | 0.0362 ± 0.00343 s⁻¹
CCCCCCSc1nc2c([nH]1)c(=S)n(C)c(=S)n2C | PGR | reporter gene, antagonist, MMTV-luciferase | T47D/A1-2 | 10 µM, 24 h, added: 5 nM progesterone | reference: maximal activity | remaining activity | 106%
CC(C)CN(CC(C)C)C(=O)/C=C/C=C/c1ccc2c(c1)OCO2 | Gamma-aminobutyric acid receptor subunit alpha-1/beta-3 (Gabra1/Gabrb3, Rattus norvegicus, UniProt P62813+P63079) | GABA current potentiation, positive modulator, two-electrode voltage clamp | Xenopus oocytes expressing α1β3 | added: GABA EC3-7 | – | Hill coefficient | 1.5 ± 0.3
N=C(N)NCCC[C@H](NC(=O)[C@H](CC(=O)O)NC(=O)[C@@H]1CSCC(=O)NCC(=O)N[C@@H](Cc2c[nH]cn2)C(=O)N[C@H](Cc2ccccc2)C(=O)N[C@@H](CCCNC(=N)N)C(=O)N[C@H](Cc2c[nH]c3ccccc23)C(=O)N1)C(=O)N[C@@H](Cc1ccccc1)C(=O)NCC(N)=O | MC5R (Homo sapiens, UniProt P33032) | cAMP accumulation | HEK293 expressing MC5R | concentration not given | – | functional activity | inactive
CCN(CC)CCCSC(=S)N1CCN(C(=O)/C=C/c2coc3cc(F)ccc3c2=O)CC1 | tomato spotted wilt virus | viral infection, half-leaf method | Nicotiana glutinosa | 500 µg/mL | – | inactivation effect | 58.2 ± 5.3%
O=C(Nc1cc(Cl)cc(Cl)c1)Nc1ccc2[nH]ccc2c1 | Alpha-synuclein (SNCA, Homo sapiens, UniProt P37840) | fibril formation, ThT fluorescence kinetics | – | 100 µM, α-syn 2 µM, plateau phase | reference: DMSO vehicle | maximum ThT fluorescence | 6 ± 2%
[64Cu+2].c1cnc(CNCc2ccc(CN3CCCN4CCNCCCN(CC4)CC3)cc2)nc1 | CXCR4 | – | NOD/SCID mouse, U87 and U87-stb-CXCR4 xenografts, muscle | iv, 90 min, no blocking dose, ex vivo | – | tissue uptake | 0.17 ± 0.02 %ID/g
COc1cc(C(=O)NC2CCC(N3CCN(CC4CCC5(CCCC5)C4)CC3)CC2)c(F)cc1Nc1ncc2c(n1)N(C1CCCC1(F)F)CC(F)(F)C(=O)N2C (centres unmarked) | CDK8 (Homo sapiens, UniProt P49336) | cell-free assay, TR-FRET | – | 10 µM | – | inhibition | 5.28%
O=S(=O)(NC1=NCCCCC1)c1ccc2sc(NS(=O)(=O)c3ccc4ccccc4c3)nc2c1 | Kelch-like ECH-associated protein 1 (Mus musculus, UniProt Q9Z2X8) | ligand-detected NMR | – | 50 µM, protein 5 or 2.5 µM | – | binding | binds
O=C(Nc1ccc(OC(F)(F)F)cc1)N1CCC(Cc2cccc(Oc3ccc(C(F)(F)F)cn3)c2)CC1 | EPHX2 | – | – | – | – | koff | 0.99 s⁻¹
COc1cc(C2CC(=O)Nc3nc(N)[nH]c(=O)c32)ccc1O (centres unmarked) | uncharacterized protein (Leishmania donovani, UniProt A0A3Q8IA09) | competitive ITC | – | added: aspartate 60 µM | – | TΔS | -10.1 kcal/mol
CCc1cc(C)nc2c(CC(=O)N(CC)CC)c(-c3ccc(OCC[18F])cc3)nn12 | Tspo (Rattus norvegicus, UniProt P16257) | PET | rat, C6 glioma, tumour | 60 min | – | tumour uptake, non-displaced tracer | ~0.2 %ID/cc
[64Cu+2].c1ccc(CNCc2ccc(CN3CCCN4CCNCCCN(CC4)CC3)cc2)nc1 | CXCR4 | – | NOD/SCID mouse, U87 and U87-stb-CXCR4 xenografts, heart | iv, 120 min, ex vivo | – | tissue uptake | 1.56 ± 0.28 %ID/g
CCCC[C@H](NC(=O)CNC(=O)CNC(=O)CN1CCN(CC(=O)O)CCN(CC(=O)O)CCN(CC(=O)O)CC1)C(=O)N[C@H]1CC(=O)NCCCC[C@@H](C(N)=O)NC(=O)[C@H](Cc2c[nH]c3ccccc23)NC(=O)[C@H](CCCNC(=N)N)NC(=O)[C@@H](Cc2ccccc2)NC(=O)[C@H](Cc2c[nH]cn2)NC1=O [lutetium-177 labelled] | – | – | C57 mouse, female, intestines | intravenous, 0.037 MBq, 2 h | – | tissue uptake | 0.9 ± 0.18 %ID
CCCSC(=S)N1CCN(C(=O)/C=C/c2coc3ccccc3c2=O)CC1 | tomato spotted wilt virus | viral infection, half-leaf method | Nicotiana glutinosa | 500 µg/mL | – | inactivation effect | 48.5 ± 3.2%
CCC(=O)N(C)c1ccc(Cl)c(Cl)c1 | CHO-WBL | – | – | 0.032 mg/mL, 3 h, without S9 activation | – | cells with one aberration | 0%

A few entries again:
SMILES | tested on | test | system | setting | scale | endpoint | value
CCCC[C@H](C)/C=C(C)/C=C/C(=O)O | TRPA1 (Homo sapiens, UniProt O75762) | ion current, inhibitor, cell-attached single-channel patch clamp | HEK-293T | 5 µM, -60 mV, added: 100 µM AITC | reference: basal | open probability | 17 fold
CCCC(=O)N1CCN(C(=O)c2ccc(NC(=O)NC34CC5CC(C)(CC(C)(C5)C3)C4)cc2)CC1 | EPHX2 | – | – | – | – | lipophilic ligand efficiency | 5.85
C=C(O[C@H]1C=CC=C(C(=O)O)[C@@H]1O)C(=O)O | Enterobactin synthase component B (entB, Escherichia coli, UniProt P0ADI4) | isochorismatase activity | – | 0.1 µM EntB, LDH-coupled, added: 0 µM 2,3-dihydroxybenzoate | – | Vmax | 4.91 ± 0.22 µM/min
